Measured values of several laboratories.
Numbered parts are unrelated; each lists some results of a single study.

Series 1 — method: competition protein-binding microarray; form: double-stranded DNA, one strand shown; sample: in vitro; concentration: 2 µM; with: Cbf1 competitor, 0.05 µM; reading: higher = stronger binding; constant ends, left off below: … GTCTTGATTCGCTTGACGCTGCTG
Target: Phosphate system positive regulatory protein PHO4, full length, GST-tagged (PHO4, Saccharomyces cerevisiae, UniProt P07270, residues 1-312)
Notes: whole 60-bp probe, lowest competitor level
Residues (chain): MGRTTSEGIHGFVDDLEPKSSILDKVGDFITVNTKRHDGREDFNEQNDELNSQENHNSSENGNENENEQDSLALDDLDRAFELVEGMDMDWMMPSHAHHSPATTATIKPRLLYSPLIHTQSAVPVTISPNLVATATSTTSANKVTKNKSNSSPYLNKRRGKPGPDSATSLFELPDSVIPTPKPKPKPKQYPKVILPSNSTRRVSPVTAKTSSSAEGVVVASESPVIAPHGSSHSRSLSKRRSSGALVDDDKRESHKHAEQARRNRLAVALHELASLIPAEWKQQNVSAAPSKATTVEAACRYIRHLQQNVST
Oligonucleotide | fluorescence intensity [a.u.]
AATCGCTATCACTTACATGTGATATCATTTCTGTAC | 7450
TGCGCAACAACTTGCCGAGTGGGTGTATGTCTAGAA | 4440
CGGGGTTAAGTTTGGTCGGTGGGTGGCTTGCAGCAG | 4530
GAGGCAAAATAAGATCGTGTGTTTCAAATTGCCTTA | 6780
GAAGTAACTTGATACGTCGTGGGTAAATGGGTCTGT | 7580
TCTACAGGAGTTCTGCATGTGCGTAATTCAAAGCCT | 10800
CTAAGCATATATCCTCACGTGACTCGGGCCACAGAC | 15000
TGGCATCCCTCCCGACACGTGACCGCAGCGGGGACA | 14400
CCATACCAAACAGCCCTCGTGGAGGAAAGAACGGTA | 13300
CTTCTGTAAATTTGTCCTGTGGGTGGACGCGCCCCG | 4390
TGTTAGCGCAAATGCTACATGACAGGCCAATCGTAG | 4320
GTTAATGTTGGAGCTGTTGTGACGGTATTAGAACAA | 4360
CGGGGTTAAGTTTGCTGAGTGGGTGGCTTGCAGCAG | 4780
AAAGCGGTAATTTGCAAAGTGGGTGCAGATATCTAT | 4080
TTTCGTGTAGCATCGCACGTCAGACATGGATGCAAC | 4860
TTAAAAAAAAAAAAGCACGTGCTAAAAAATGTTTTT | 19100
CATACCCAACCTTGCCCGGTGGGTGAAGATATTTGT | 3910
CTTCTGTAAATTTGTTTCGTGGGTGGACGCGCCCCG | 4680
TGGAATGTATACCTGCACACGCTTGGTAAGGCCAAC | 6870
CTTCTGTAAATTTGCACCGTGGGTGGACGCGCCCCG | 8150
CTATTACGGGCTTGGCTTGTGAAACTTTTCCTATAT | 3270

Series 2 — method: RNA Bind-n-Seq; form: RNA; sample: in vitro; concentration: 1 µM; notes: whole 134-nt RNA, ends assumed; with: 150 mM KCl; baseline: input library; reading: higher = stronger binding
Target: Ras GTPase-activating protein-binding protein 1, C-terminal RGG region (G3BP1, Homo sapiens, UniProt Q13283)
UniProt Q13283, sequence (whole entry, looked up): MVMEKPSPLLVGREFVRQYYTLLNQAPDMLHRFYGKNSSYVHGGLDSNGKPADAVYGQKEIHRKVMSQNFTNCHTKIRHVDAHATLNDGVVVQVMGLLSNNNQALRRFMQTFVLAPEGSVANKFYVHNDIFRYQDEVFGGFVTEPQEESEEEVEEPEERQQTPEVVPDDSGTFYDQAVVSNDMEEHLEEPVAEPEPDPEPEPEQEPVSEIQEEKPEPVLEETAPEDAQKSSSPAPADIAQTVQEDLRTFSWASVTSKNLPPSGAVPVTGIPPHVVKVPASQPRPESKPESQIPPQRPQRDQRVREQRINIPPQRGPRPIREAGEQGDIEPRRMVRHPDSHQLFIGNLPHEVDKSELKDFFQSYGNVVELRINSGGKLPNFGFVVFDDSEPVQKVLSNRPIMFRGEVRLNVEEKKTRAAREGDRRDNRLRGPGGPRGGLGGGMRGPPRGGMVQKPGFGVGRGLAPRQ
Constant ends, left off below: GGGAGUUCUACAGUCCGACGAUC … UGGAAUUCUCGGGUGUCAAGG
Oligonucleotide | log2 enrichment
CCUGUGCUACACAUCGUAUGUACCGAAUCGGGGUUUGGGGAAAAAGGGGUUUUUUUGGGGAAAGUAUUAUGUUACGCCGUUCGGAUCUGC | 1.32
CCUGUGCUACACAUCGUAUGUACCGAAUCGGGCCCCCCGGGCCCCCCGGGGCCCCCCGGGAAAGUAUUAUGUUACGCCGUUCGGAUCUGC | -2.05
UAACUUUAGAGGAGGAUCUGAUGGAUAUGGCAGGGGACGUGGAUUUGGGGAUGGCUAUAAUGGGUAUGGAGGAGGACCUGGAGGUGGCAA | 0.669
GUCCUGUGCUACACAUCGUAUGUACCGAAUCGGUUUUUUUGGUUUUUUUGGUUUUUGGAAAGUAUUAUGUUACGCCGUUCGGAUCUGCAC | -1.33
UUCUGCACCUCUGCUACCUAAAGAAGACCCAAUCUUCACAUAUUUAUCUAAACGGUUAGGAAGGAGUAUAGAUGACAUAGGUCACCUCAU | -0.576
CUGUGCUACACAUCGUAUGUACCGAAUCGGGGAAAAAAAGGGGUUUUUUUGGGGUUUGGGGAAAGUAUUAUGUUACGCCGUUCGGAUCUG | -0.0274
AGUCCUGUGCUACACAUCGUAUGUACCGAAUCGGGGAAAAGGGGAAAAGGGAAAAGGGAAAGUAUUAUGUUACGCCGUUCGGAUCUGCAC | 0.891
UUCCAUUGUGAACGUGCCUGGUGAGUCUACUCUUCGCCGAGAUUUCCUGAGACUGCAGCAGGAGAACAAGGAACGUUCCGAGGCUCUUCG | -1.68
UAACUUUAGAGGAGGAUCUGAUGGAUAUGGCAGUGGACGUGGAUUUGGGGAUGGCUAUAAUGGCUAUGGAGGAGGACCUGGAGGUGGCAA | -0.753
AAGUCCUGUGCUACACAUCGUAUGUACCGAAUCGGGGUUUGGGGAAAGGGGAGGGGAAAGUAUUAUGUUACGCCGUUCGGAUCUGCACUU | 3.4
CAAGUCCUGUGCUACACAUCGUAUGUACCGAAUCGGUUUGGGUUUGGGGUUUGGGAAAGUAUUAUGUUACGCCGUUCGGAUCUGCACUUC | -0.711
CCUGUGCUACACAUCGUAUGUACCGAAUCGGGGAAAAAAGGAAAAAAGGGGAAAAAAGGGGAAAGUAUUAUGUUACGCCGUUCGGAUCUG | -1.56
CCUCAAGUCCUGUGCUACACAUCGUAUGUACCGAAUCGGGUGGUGGGUGGGGAAAGUAUUAUGUUACGCCGUUCGGAUCUGCACUUCCAG | 0.77
CCUGUGCUACACAUCGUAUGUACCGAAUCGGGGUUUUUUGGGUUUUUUGGGUUUUUUGGGAAAGUAUUAUGUUACGCCGUUCGGAUCUGC | -1.24

Series 3 — method: RNA Bind-n-Seq; form: RNA; sample: in vitro; concentration: 100 nM; notes: RNA with constant flanks, ends assumed; baseline: input RNA pool; reading: higher = stronger binding
Target: RING finger protein unkempt homolog, zinc fingers 1-6, SBP tag (UNK, Homo sapiens, UniProt Q9C0B0, residues 30-357)
UniProt Q9C0B0, sequence (30-357, looked up): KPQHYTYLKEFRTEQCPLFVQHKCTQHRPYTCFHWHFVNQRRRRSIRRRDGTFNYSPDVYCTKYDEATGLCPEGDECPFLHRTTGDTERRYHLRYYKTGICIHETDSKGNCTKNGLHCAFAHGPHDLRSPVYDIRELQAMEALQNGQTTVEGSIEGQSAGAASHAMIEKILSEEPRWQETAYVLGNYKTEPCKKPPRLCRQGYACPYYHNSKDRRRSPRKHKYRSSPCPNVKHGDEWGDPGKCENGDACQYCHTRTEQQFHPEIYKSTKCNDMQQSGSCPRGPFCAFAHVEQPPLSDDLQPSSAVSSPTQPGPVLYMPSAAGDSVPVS
Oligonucleotide | bound/input enrichment [ratio]
GGGAGUUCUACAGUCCGACGAUCGUGAUGUCCUUACUGUCCCCAGCCAGGGCCGGGGACCGGUGUUUCACUGAGGACCUGCAUCCGAAACAUUUUUUAAAUUGUUGUACAGGAAGAGAUGUGUCUAAAACAGCAUCUUAAAGCCAACAGAGGAUUGAGCAUCA | 0.278
GGGAGUUCUACAGUCCGACGAUCUAAUUCAAUGGUUGAGGGUUCAGAACUCAAAAAGGUUCGCUCCAACUCCCGAAUUUAUCACCGGUACUUUUUACUGGAUGCUGACAUGCAGAGCCUAAGGUGGGAGCCAUCUAAGAAGGACAACAGAGGAUUGAGCAUCA | 0.116
GGGAGUUCUACAGUCCGACGAUCGUACUGCCCGUGCAAAUCCCACAACACUGAAUGCAAAGCCGCAAUUUCCACCGUCACAGUCCGGCCGCUUCCGGGCAAUAUUGCCAUGGUUUUACUCAUGUGCAGGUUUUGAAAAUGUACCAACAGAGGAUUGAGCAUCA | 0.475

Series 4 — method: RNA Bind-n-Seq; form: RNA; sample: in vitro; concentration: 365 nM; baseline: no-protein control; reading: higher = stronger binding
Target: RNA binding protein fox-1 homolog 2, RRM domain, GST-SBP tag (RBFOX2, Homo sapiens, UniProt O43251-10, residues 100-194)
Notes: natural RNA segment, single round, ends assumed
Constant ends, left off below: GGGAGUUCUACAGUCCGACGAUC … UGGAAUUCUCGGGUGCCAA
Target sequence (chain): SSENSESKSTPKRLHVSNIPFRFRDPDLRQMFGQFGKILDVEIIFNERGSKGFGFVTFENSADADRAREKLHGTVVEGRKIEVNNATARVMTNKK
Oligonucleotide | RBNS enrichment (R)
GCAAUUUGGUUGUAAAGAUUUGAUUCCUUUGUGUUCAUCUGUUCCGCUUCUCAGCGGUCCAUCUCAGCGUCUCCCUUCAGGAACCGCUGAGUGUCCUCUCUUAACAUCCA | 0.258
AGGAGCUGAACCUUAUUAGGUUGGAUGUCGAUCAGGAACCUGUUUGCCCUUUGCUGGGAAGCCUUCACUCUCCAGCUUUCCUGGGGUAGGGAAGGUCUCCCACAUUAUGC | 0.293
GUUGGAUAUAAAUAGGAAUUUUUACACAUUACUAUUGUGAAUGGUGAAUGUUCAUGUAUGACCUACUUGUAAUUAACUUGAGUUGUAGUCCACAGCCUCAGGACAAAUGU | 0.359
UAUUCCCGGGGUACCAAGCAGCUGCACAGUCGGUGCCUGGGAGGCACGUAGAGGCCCAGAGAGUCCCUGGGGGUUCUGCUCUGACCGUGUGGGUGGUGAUCCUUGUCAGG | 0.919
AAGAUUCCAUGGAUUUACGGUGCCUGCAUUCCACAUAGCCAGAGACUUAGCUUUGUAUUUCAAAUGAAUUUGCAUAAAACCUGUUCAUCUUUAGCACCUUAUAGACAAAA | 0.725
AGAUGCUAGAGUCGACUGCACUCUCUCCUUAGCUGCAGACCAUGCACAGUGCCUGGGGCGGAAGGAGGAGAGGUGUUGCGGUUUGCCCUGCUGCCUCCCCAGCAGGAACA | 0.539
CCUUGAAUAUAGUGAGUCCAGUCUCAAAAGAAAAAAAAAGGUAAGUGAGGCUGGAGAAAUGGCUUAGAGGUUAAGAGUGUGGACUGUUCUUGCGUAGUUAUGACCAUUGA | 1.83
AAUAAAAGGCCAUUUCGGACUCUGUCCUGCUUGGACUAAUUGGCCUUCUGGACCCCUCCACUCUGGCCGUACCCGAUGGUCUGAGUGGUUUUGCCACCUCCUCUCUCAGU | 0.318
UAUUAAUUAGGUCUAAAUACCGUGGAGCAGCCCUGAUAUCAUGCUGACAGCUUACGUGUCAGAGGGCAGAACUCAGCCAGUCCUGUGGUUUCAGGUGUUAAUAUGUAAAC | 0.498
UUGGUUUUCCUGUAUAGGAAUGAGAUUAAUUCCUUUCCAGGUAUUUUAUAAUUCUGGGAAGCAAAACCCAUGCCUCCCCCUAGCCAUUUUUACUGUUAUCCUAUUUAGAU | 0.426
AUUCCUCACCAAGGAAGUGGCUGCAGGGACACUGGUGCCACGGCUCCUGGGCCAGCCCUUAUGUCUGAAACUGGUUGCCAACAGCCCCGAGCCAAGGCAAGGAUUUGUGU | 0.311
UUAGUUGGAGCAAAGCUUUAAGUGUGUUGGCGUGCUUCUGUGUGGCUGUCCUGUGUCGCCAGGUCGAAGAUCACAGUGAGGUAGAGGCCCUGCCCCAUCCCCAGGGCCGC | 0.669

Series 5 — method: RNA Bind-n-Seq; form: RNA; sample: in vitro; concentration: 20 nM; notes: 6-mer, flanks averaged, single round; with: 150 mM LiCl; baseline: input library; reading: higher = stronger binding
Target: TAR DNA-binding protein 43, full length, His tag (TARDBP, Homo sapiens, UniProt Q13148, residues 1-414)
Oligonucleotide | 6-mer enrichment (R)
AGUCGA | 0.875
AUCCAU | 0.856
GUGAUC | 0.97
AACCGC | 0.844
ACCGCU | 0.887
AGGCCA | 0.908
GUCUGU | 1.1
CGACUU | 0.838
UACCUG | 0.865
GGCUCG | 0.948
ACAACU | 0.838
CAUUGG | 0.958
CAAGAA | 0.885
AUUAAA | 0.905
UGCAAA | 0.864
CCCUGA | 0.977
UGAGAC | 0.929

For quick reference, copied from above (series 2):
Oligonucleotide | log2 enrichment
CCUGUGCUACACAUCGUAUGUACCGAAUCGGGGUUUGGGGAAAAAGGGGUUUUUUUGGGGAAAGUAUUAUGUUACGCCGUUCGGAUCUGC | 1.32
CCUGUGCUACACAUCGUAUGUACCGAAUCGGGCCCCCCGGGCCCCCCGGGGCCCCCCGGGAAAGUAUUAUGUUACGCCGUUCGGAUCUGC | -2.05
UAACUUUAGAGGAGGAUCUGAUGGAUAUGGCAGGGGACGUGGAUUUGGGGAUGGCUAUAAUGGGUAUGGAGGAGGACCUGGAGGUGGCAA | 0.669
GUCCUGUGCUACACAUCGUAUGUACCGAAUCGGUUUUUUUGGUUUUUUUGGUUUUUGGAAAGUAUUAUGUUACGCCGUUCGGAUCUGCAC | -1.33
UUCUGCACCUCUGCUACCUAAAGAAGACCCAAUCUUCACAUAUUUAUCUAAACGGUUAGGAAGGAGUAUAGAUGACAUAGGUCACCUCAU | -0.576
